Experimental data from different studies.
Parts stem from different laboratories: compare values within a part only. Values joined by “and” are separate records of one study, mostly repeats; a detail may differ.
UniProt P15056, sequence (whole entry, unmodified, looked up): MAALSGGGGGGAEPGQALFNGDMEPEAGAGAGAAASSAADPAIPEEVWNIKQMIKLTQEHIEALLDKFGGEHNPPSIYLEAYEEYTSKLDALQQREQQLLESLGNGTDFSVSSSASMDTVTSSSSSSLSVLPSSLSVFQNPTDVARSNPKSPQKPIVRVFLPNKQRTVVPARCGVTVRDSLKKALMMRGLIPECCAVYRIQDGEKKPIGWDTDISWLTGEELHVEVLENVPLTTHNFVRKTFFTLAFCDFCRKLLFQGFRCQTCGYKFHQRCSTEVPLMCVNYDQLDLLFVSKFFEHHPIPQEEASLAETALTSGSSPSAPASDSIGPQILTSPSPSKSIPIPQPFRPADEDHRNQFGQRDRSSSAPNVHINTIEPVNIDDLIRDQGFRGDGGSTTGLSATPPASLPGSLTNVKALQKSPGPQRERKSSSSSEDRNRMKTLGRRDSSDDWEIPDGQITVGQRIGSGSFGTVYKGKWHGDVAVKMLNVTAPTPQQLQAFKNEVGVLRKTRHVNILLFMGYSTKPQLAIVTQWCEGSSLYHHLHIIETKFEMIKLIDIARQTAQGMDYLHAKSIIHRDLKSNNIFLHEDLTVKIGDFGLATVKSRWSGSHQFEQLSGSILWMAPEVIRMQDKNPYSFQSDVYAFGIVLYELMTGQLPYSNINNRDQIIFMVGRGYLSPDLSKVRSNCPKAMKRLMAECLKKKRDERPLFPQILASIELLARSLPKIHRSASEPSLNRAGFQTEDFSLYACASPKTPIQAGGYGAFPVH
UniProt Q9UEE5, sequence (whole entry, looked up): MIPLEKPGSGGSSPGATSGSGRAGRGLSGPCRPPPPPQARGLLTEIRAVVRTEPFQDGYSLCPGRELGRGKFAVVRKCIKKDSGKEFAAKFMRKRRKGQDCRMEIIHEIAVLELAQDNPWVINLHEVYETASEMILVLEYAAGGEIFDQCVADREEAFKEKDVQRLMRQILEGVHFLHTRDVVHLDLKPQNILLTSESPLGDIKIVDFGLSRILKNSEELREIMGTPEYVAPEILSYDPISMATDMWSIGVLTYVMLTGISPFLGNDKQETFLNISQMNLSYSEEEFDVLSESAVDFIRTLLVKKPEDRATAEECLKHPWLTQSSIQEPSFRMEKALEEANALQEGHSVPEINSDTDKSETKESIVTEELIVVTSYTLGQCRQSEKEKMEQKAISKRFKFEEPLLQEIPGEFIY
UniProt O15530, sequence (whole entry, looked up): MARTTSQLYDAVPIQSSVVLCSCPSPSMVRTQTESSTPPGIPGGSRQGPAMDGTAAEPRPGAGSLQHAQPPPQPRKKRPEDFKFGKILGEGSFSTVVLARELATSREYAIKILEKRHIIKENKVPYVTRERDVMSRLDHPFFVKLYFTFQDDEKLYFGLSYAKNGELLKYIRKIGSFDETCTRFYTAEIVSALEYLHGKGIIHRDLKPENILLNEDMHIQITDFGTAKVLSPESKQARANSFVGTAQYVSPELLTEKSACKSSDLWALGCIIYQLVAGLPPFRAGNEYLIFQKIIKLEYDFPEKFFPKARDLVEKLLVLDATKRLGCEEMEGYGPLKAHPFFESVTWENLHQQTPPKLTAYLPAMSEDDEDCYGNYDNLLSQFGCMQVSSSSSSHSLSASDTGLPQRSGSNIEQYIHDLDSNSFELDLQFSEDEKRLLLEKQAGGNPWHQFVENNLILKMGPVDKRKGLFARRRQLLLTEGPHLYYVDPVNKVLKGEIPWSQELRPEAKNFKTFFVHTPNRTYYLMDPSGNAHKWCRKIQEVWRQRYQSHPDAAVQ
UniProt Q9H2X6, sequence (whole entry, looked up): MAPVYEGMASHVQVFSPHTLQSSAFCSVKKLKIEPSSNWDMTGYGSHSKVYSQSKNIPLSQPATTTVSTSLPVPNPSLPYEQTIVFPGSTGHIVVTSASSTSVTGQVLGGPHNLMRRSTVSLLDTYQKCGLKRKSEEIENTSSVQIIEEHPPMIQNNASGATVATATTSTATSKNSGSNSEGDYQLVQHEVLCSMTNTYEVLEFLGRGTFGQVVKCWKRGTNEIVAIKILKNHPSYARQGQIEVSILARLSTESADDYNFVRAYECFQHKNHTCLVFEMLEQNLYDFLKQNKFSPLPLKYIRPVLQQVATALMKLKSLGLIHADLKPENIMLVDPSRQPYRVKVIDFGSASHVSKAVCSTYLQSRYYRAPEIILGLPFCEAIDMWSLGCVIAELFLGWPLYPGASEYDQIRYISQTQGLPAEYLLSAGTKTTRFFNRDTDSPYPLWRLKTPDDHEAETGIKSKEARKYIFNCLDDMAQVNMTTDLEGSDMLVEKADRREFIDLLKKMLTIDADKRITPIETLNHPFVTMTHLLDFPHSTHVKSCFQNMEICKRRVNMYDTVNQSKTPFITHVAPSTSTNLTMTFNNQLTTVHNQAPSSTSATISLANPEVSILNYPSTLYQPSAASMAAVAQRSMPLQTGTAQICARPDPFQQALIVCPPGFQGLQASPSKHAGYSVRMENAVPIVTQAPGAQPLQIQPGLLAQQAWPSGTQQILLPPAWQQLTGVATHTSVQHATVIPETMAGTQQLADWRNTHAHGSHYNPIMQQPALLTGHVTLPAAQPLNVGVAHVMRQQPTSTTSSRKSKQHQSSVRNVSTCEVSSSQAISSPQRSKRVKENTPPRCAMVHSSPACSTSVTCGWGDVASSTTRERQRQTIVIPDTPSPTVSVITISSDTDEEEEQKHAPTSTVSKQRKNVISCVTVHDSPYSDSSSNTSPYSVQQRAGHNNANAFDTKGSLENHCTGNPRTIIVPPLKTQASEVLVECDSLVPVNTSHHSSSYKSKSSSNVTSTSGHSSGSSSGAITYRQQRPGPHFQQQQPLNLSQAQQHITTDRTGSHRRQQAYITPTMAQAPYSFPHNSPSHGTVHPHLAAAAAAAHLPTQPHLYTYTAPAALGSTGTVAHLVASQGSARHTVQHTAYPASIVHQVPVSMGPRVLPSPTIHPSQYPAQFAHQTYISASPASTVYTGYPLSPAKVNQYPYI
UniProt Q16644, sequence (whole entry, looked up): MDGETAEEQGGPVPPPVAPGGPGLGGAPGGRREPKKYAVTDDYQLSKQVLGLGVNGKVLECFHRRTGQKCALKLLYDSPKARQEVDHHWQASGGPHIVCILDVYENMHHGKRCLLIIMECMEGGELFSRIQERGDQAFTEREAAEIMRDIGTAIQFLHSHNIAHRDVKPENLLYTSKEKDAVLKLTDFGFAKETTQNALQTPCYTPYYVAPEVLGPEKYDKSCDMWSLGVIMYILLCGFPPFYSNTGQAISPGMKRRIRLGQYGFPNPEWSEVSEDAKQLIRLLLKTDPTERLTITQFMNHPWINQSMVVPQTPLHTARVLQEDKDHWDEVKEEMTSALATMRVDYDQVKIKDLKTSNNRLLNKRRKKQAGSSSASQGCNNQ

Block 1
Structure (SMILES): CC[n+]1c(/C=C/N(C)c2ccccc2)n(-c2ccccc2)c2ccc(-c3nc4ccccc4s3)cc21
Effect on: enzyme activity
Action: inhibitor
Concentration: 0.5 µM
Reference: control
Quantity: remaining activity
EPHA4 (Homo sapiens, UniProt P54764): 91.9%
PHKG1 (Homo sapiens, UniProt Q16816): 96.1%
TSSK2 (Homo sapiens, UniProt Q96PF2): 98.4%
EPHB4 (Homo sapiens, UniProt P54760): 103%
Cyclin-dependent kinase 4, with cyclin D3 (CDK4, Homo sapiens, UniProt P11802): 102%
Cyclin-dependent kinase 6, with cyclin D3 (CDK6, Homo sapiens, UniProt Q00534): 92.2%
RPS6KA5 (Homo sapiens, UniProt O75582): 111%
EPHB1 (Homo sapiens, UniProt P54762): 104%
RPS6KA6 (Homo sapiens, UniProt Q9UK32): 96%
WNK3 (Homo sapiens, UniProt Q9BYP7): 85.9%
MAP4K4 (Homo sapiens, UniProt O95819): 110%
STK16 (Homo sapiens, UniProt O75716): 98.4%
HIPK2 (Homo sapiens, UniProt Q9H2X6): 103%
BLK (Homo sapiens, UniProt P51451): 99.1%
SRMS (Homo sapiens, UniProt Q9H3Y6): 93.7%
CAMK2B (Homo sapiens, UniProt Q13554): 103%
DYRK3 (Homo sapiens, UniProt O43781): 98.7%
MAPKAPK3 (Homo sapiens, UniProt Q16644): 100%
PDPK1 (Homo sapiens, UniProt O15530): 103%
Cyclin-dependent kinase 1, with cyclin B (CDK1, Homo sapiens, UniProt P06493): 105%
HIPK4 (Homo sapiens, UniProt Q8NE63): 102%
STK17A (Homo sapiens, UniProt Q9UEE5): 96.9%

Block 2
Cell line: A-375
Concentration: 100 µM
Time: 18 h
Quantity: viability
NC(=O)CCC(N)C(=O)O (racemic): 98.2%
N[C@@H](Cc1c[nH]c2ccccc12)C(=O)O: 72.2%
CCCNS(=O)(=O)Nc1ncnc(OCCOc2ncc(Br)cn2)c1-c1ccc(Br)cc1: 91.4%
CCCN[C@H]1CCc2nc(N)sc2C1: 106%
CN(C)[C@@H]1C(O)=C(C(N)=O)C(=O)[C@@]2(O)C(O)=C3C(=O)c4c(O)ccc(Cl)c4[C@@](C)(O)[C@H]3C[C@@H]12: 103%

Block 3
Structure (SMILES): Cc1c[nH]c2nccc(Oc3c(F)cc(Nc4cc(Cl)nc(N)n4)cc3F)c12
Effect on: cell-free assay
Technique: competition with immobilised ligand
Concentration: 0.1 µM
Quantity: remaining binding
BRAF (Homo sapiens, UniProt P15056, V600E): 98%
CDKL3 (Homo sapiens, UniProt Q8IVW4): 100%
FGFR3 (Homo sapiens, UniProt P22607): 100%
HUNK (Homo sapiens, UniProt P57058): 100%
NEK1 (Homo sapiens, UniProt Q96PY6): 96%
PRKCD (Homo sapiens, UniProt Q05655): 100%
Ribosomal protein S6 kinase alpha-1, C-terminal kinase domain (RPS6KA1, Homo sapiens, UniProt Q15418): 100%
Ribosomal protein S6 kinase alpha-3, C-terminal kinase domain (RPS6KA3, Homo sapiens, UniProt P51812): 73%
TIE1 (Homo sapiens, UniProt P35590): 94%
FLT3 (Homo sapiens, UniProt P36888, D835V/ITD): 87%
PRKCH (Homo sapiens, UniProt P24723): 74%
EPHA6 (Homo sapiens, UniProt Q9UF33): 100%
PRKD2 (Homo sapiens, UniProt Q9BZL6): 94%

Other studies, line by line
DCAF1: DDB1- and CUL4-associated factor 1 (DCAF1, Homo sapiens, UniProt Q9Y4B6)
UniProt Q9Y4B6, sequence (whole entry, looked up): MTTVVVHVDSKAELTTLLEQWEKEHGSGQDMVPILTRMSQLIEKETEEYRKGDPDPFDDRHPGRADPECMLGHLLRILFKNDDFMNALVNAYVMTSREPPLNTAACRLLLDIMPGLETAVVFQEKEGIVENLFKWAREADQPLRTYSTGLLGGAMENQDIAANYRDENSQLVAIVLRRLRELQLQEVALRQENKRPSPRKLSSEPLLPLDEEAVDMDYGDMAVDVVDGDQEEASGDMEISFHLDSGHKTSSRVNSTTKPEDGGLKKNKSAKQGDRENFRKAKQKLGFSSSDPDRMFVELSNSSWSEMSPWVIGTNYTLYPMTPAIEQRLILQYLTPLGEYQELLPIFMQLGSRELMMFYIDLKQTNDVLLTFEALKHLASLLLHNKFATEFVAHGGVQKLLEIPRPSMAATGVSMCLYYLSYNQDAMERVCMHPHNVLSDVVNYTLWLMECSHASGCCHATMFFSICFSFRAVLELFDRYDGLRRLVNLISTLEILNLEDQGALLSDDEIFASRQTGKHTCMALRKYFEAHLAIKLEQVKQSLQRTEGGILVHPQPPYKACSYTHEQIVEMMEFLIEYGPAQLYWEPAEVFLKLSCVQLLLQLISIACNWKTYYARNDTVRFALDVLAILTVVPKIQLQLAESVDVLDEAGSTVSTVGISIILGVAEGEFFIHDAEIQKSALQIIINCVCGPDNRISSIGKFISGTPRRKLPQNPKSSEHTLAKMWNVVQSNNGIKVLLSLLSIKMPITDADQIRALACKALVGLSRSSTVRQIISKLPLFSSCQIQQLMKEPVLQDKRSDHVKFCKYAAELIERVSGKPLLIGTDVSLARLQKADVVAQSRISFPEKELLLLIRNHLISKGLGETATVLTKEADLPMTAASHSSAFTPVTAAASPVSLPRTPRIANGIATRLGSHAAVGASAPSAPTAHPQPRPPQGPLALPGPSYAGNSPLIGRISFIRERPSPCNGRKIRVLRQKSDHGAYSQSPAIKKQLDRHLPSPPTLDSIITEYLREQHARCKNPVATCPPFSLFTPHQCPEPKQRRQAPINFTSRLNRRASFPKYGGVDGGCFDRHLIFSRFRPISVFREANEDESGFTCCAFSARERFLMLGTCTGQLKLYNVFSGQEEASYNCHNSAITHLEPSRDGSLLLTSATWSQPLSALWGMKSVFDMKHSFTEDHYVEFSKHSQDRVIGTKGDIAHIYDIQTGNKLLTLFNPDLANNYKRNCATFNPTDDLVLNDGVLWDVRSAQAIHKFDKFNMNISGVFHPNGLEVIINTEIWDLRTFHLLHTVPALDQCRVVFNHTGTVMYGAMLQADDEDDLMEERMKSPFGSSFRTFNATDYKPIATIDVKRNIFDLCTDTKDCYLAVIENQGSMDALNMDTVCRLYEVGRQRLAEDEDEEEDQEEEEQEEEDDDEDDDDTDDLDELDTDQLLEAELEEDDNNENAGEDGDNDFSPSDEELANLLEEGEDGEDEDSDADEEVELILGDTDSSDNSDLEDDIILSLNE
C[C@@H]1CN(c2ccc(-c3cc(C(=O)NCCOCCOCCOCCOCCNC(=O)/C=C/c4[nH]cc(C(=O)N[C@@H](CC(N)=O)c5ccc(F)c(Cl)c5)c4-c4ccc(Cl)cc4F)ccc3F)cc2NC(=O)c2c[nH]c(=O)cc2C(F)(F)F)C[C@H](C)N1C — Kd (DCAF1; SPR): 54 nM
COc1ccc(-c2c(Nc3ccccn3)[nH]c3c(C4=CCCCC4)c(-c4ccccc4)nn3c2=O)cc1 — AUC(tau) extrapolated fraction (human, plasma; oral, 200 mg twice daily, cycle 1): 0%
C[C@@H]1CN(c2ccc(-c3cc(C(=O)NCCOCCOCCOCCOCCOCCOCCNC(=O)/C=C/c4[nH]cc(C(=O)N[C@@H](CC(N)=O)c5ccc(F)c(Cl)c5)c4-c4ccc(Cl)cc4F)ccc3F)cc2NC(=O)c2ccc(F)cc2C(F)(F)F)C[C@H](C)N1C — Kd (DCAF1; SPR): 39.3 nM
CN1CC[C@H](c2c(O)cc(O)c3c(=O)cc(-c4ccccc4Cl)oc23)[C@H](O)C1 — viability (HuT78; trypan blue exclusion; 0.0001 µM, 48 h; reference: untreated): 97.2% and 95.8%

Repeated from above (block 1):
MAP4K4 (Homo sapiens, UniProt O95819): 110%
MAPKAPK3 (Homo sapiens, UniProt Q16644): 100%
HIPK4 (Homo sapiens, UniProt Q8NE63): 102%
